Results pooled from the literature.
Numbered parts are unrelated; each lists some results of a single study.

Sample 1
Target: Centromere-binding protein 1, full length, His-tagged (CBF1, Saccharomyces cerevisiae, UniProt P17106, residues 1-351)
UniProt P17106, sequence (whole entry, looked up): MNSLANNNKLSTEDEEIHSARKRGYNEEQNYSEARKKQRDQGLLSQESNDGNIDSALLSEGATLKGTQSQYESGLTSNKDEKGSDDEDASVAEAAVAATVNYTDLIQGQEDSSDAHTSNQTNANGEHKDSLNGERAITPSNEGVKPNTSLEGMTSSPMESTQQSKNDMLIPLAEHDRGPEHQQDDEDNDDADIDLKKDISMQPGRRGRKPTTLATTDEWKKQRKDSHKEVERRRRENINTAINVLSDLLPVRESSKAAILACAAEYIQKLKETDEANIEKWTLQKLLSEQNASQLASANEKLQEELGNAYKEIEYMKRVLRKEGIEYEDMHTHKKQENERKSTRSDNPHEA
Technique: competition protein-binding microarray
Form: double-stranded DNA, one strand shown
Sample: in vitro
Concentration: 2 µM
Setting: whole 60-bp probe, lowest competitor level
With: Pho4 competitor, 0.05 µM
Direction: higher = stronger binding
Measurement: fluorescence intensity
CGAATGCTCTTGAGCATCGTGGCCGTCACCCGGTATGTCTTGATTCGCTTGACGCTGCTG: 71.8 a.u.
GTCTTGTCTCATTGACAGGTGGGTGTCCCCACTTCAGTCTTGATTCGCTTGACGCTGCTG: 66.6 a.u.
GCCCATTCTGTGGTGAATGTGACGGAGCAGTTTGAGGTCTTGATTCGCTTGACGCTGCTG: 69.3 a.u.
TAGAGAATGGCAATGCTCGTGCTAAAGGTGAAAAAAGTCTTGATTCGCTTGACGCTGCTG: 92 a.u.
GTCTTGTCTCATTGAGTGGTGGGTGTCCCCACTTCAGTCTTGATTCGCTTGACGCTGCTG: 57.4 a.u.

Sample 2
Target: Histone acetyltransferase KAT6A, both winged helices, GST fusion (KAT6A, Homo sapiens, UniProt Q92794, residues 1-181)
Technique: protein binding microarray
Form: double-stranded DNA, one strand shown
Sample: in vitro
Concentration: not given
Setting: 8-mer, flanks averaged, mean of 2 arrays, mostly near background
Relative to: not given
Direction: higher = stronger binding
Measurement: E-score
Residues (chain): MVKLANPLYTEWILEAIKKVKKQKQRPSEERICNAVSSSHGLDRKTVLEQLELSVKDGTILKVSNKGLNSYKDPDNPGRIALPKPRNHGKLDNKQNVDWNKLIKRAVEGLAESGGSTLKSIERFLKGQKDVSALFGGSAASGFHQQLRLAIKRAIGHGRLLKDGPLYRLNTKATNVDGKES
AGCCTGCC: -0.0551
TAGAACGA: -0.0337
CACGGTAA: 0.183
CAATAGTG: 0.0295
CTTATACC: -0.0566
ATTTAGTA: -0.0149
CTGGGTGA: -0.0962
ACCGGCCC: 0.161
ATAAAAAG: -0.177

Sample 3
Target: Sal-like protein 4, full length isoform A (SALL4, Homo sapiens, UniProt Q9UJQ4, residues 1-1053)
UniProt Q9UJQ4, sequence (whole entry, looked up): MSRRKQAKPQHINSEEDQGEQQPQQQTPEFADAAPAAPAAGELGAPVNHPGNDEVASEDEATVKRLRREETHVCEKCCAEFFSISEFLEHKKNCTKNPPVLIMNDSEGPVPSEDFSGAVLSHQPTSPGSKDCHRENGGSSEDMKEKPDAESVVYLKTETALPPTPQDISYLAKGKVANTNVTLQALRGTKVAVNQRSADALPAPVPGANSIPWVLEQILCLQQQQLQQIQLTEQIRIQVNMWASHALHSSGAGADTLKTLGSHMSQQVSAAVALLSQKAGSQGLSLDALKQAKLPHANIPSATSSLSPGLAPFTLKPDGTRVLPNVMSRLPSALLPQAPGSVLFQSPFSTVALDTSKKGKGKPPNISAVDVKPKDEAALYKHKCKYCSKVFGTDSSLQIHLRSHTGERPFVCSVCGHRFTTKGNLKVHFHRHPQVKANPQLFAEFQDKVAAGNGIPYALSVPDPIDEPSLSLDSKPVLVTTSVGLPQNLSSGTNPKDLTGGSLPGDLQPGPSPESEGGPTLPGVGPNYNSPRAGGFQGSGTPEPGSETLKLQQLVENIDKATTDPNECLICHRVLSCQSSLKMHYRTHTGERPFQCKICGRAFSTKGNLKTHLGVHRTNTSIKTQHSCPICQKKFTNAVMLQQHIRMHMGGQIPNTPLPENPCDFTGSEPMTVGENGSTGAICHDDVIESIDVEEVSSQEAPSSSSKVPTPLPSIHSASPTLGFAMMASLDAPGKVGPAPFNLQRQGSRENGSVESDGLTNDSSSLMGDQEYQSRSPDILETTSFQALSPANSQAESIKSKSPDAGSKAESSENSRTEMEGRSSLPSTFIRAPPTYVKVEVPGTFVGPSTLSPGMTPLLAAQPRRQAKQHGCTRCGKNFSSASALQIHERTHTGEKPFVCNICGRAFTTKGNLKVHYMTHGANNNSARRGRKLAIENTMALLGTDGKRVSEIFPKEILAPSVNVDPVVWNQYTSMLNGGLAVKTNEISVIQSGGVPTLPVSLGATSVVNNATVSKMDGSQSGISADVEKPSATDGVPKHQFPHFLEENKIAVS
Technique: universal PBM
Form: double-stranded DNA, one strand shown
Sample: in vitro
Concentration: 600 nM
Setting: 8-mer, flanks averaged, mean of replicates
Direction: higher = stronger binding
Measurement: E-score
ATGCCGCA: -0.137
CACCCCCC: -0.361
AGGCACCC: -0.291
AGTACGGA: -0.0494
GGCGTGAA: -0.0858
TCCATAGA: 0.0538

Single results of other studies
PhoQ, residues 284 288 289 292 302 303 GNNTDL  fold induction (PhoP, residues 12 14 15 18 19 NMSSL (Escherichia coli, UniProt P23836); Sort-seq, item: YFP reporter; E. coli; PhoQ-PhoP variant library, with: 10 µM Mg2+; relative to: high Mg2+ state, higher = stronger signaling): 0.394

A few entries again (sample 3):
GGCGTGAA: -0.0858
CACCCCCC: -0.361
